Values quoted from earlier work that unrelated publications cite.
Each numbered part shows a few of the values that one paper quotes. Values joined by “and” are separate records of one study, mostly repeats; a detail may differ.
UniProt P0ACB0, sequence (whole entry, looked up): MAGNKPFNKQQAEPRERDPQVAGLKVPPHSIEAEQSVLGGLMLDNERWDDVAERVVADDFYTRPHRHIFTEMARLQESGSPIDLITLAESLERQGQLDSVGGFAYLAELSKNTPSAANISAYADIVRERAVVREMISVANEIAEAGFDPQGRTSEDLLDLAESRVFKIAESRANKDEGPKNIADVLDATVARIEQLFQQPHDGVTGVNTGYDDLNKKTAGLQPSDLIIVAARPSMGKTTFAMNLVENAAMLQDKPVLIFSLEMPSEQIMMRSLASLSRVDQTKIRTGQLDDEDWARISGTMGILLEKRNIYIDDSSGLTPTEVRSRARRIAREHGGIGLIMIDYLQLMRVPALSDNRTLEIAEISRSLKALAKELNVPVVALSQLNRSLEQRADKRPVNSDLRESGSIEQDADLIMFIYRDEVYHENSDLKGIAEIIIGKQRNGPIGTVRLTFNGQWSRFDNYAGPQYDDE

Set 1 — organism: Cryptosporidium parvum; method: high-throughput screen; concentration: concentration not given
Structure (SMILES)	activity
CCc1ccc(CCOc2ccc(CC3SC(=O)NC3=O)cc2)nc1 (stereo not drawn)	inactive
CN(C)c1nc(N(C)C)nc(N(C)C)n1	inactive
C[C@]12CCC(=O)C=C1CC[C@@H]1[C@@H]2[C@@H](O)C[C@@]2(C)[C@H]1CC[C@]2(O)C(=O)CO	inactive
CN1CCN(C2=Nc3ccccc3Oc3ccc(Cl)cc32)CC1	inactive
C[C@H]1C[C@H]2[C@@H]3CCC4=CC(=O)C=C[C@]4(C)[C@@]3(F)[C@@H](O)C[C@]2(C)[C@@]1(O)C(=O)CO	inactive
CC#C[C@]1(O)CC[C@H]2[C@@H]3CCC4=CC(=O)CCC4=C3[C@@H](c3ccc(N(C)C)cc3)C[C@@]21C	inactive
Cl.NC1CCN(c2cccc(Cl)n2)CC1	inactive
CCn1cc(C(=O)O)c(=O)c2cc(F)c(N3CCNCC3)cc21	inactive
CCc1c2c(nc3ccc(OC(=O)N4CCC(N5CCCCC5)CC4)cc13)-c1cc3c(c(=O)n1C2)COC(=O)[C@]3(O)CC.Cl	inactive
Cl.O.O=C1N(c2ccccc2)c2ccccc2C1(Cc1ccncc1)Cc1ccncc1	inactive
COc1ccccc1N1CCN(CCCNc2cc(=O)n(C)c(=O)n2C)CC1.Cl	inactive
C=CC1=C(C(=O)O)N2C(=O)[C@@H](NC(=O)/C(=N\OCC(=O)O)c3csc(N)n3)[C@H]2SC1	inactive
O=C(NCCO[N+](=O)[O-])c1cccnc1	inactive
NS(=O)(=O)c1cc2c(cc1C(F)(F)F)NC(Cc1ccccc1)NS2(=O)=O (stereo not drawn)	inactive
C[C@]12CC[C@@H]3c4ccc(O)cc4CC[C@H]3[C@@H]1CC[C@@H]2O	inactive
COc1ccc(OC)c(C(O)CNC(=O)CN)c1 (stereo not drawn)	inactive
O=C(O)COCCN1CCN(C(c2ccccc2)c2ccc(Cl)cc2)CC1 (stereo not drawn)	inactive
CC(C)(C#N)c1cc(Cn2cncn2)cc(C(C)(C)C#N)c1	inactive
CCCNCC(O)COc1ccccc1C(=O)CCc1ccccc1 (stereo not drawn)	inactive
Nc1nc(N)nc(-c2cc(Cl)ccc2Cl)n1	inactive
COc1ccc(Cl)cc1C(=O)NCCc1ccc(S(=O)(=O)NC(=O)NC2CCCCC2)cc1	inactive
CCOC(=O)O[C@]1(C(=O)OCCl)CC[C@H]2[C@@H]3CCC4=CC(=O)C=C[C@]4(C)[C@H]3[C@@H](O)C[C@@]21C	inactive
C#C[C@]1(OC(C)=O)CC[C@H]2[C@@H]3CCC4=CC(=O)CC[C@@H]4[C@H]3CC[C@@]21C	inactive
CCCCNC(=O)NS(=O)(=O)c1ccc(C)cc1	inactive
COC1=C(OC)C(=O)C(CCCCCCCCCCO)=C(C)C1=O	inactive

Set 2 — cell line: MCF7; method: microarray; concentration: concentration not given; reference: DMSO
Compound: CCCCCCCCNC(C)C(O)c1ccc(SC(C)C)cc1 (stereo not drawn)
refers to	log2 fold change
TSFM mRNA	0.9
VEZF1 mRNA	1.37
SLC38A7 mRNA	1.11

Single results of other studies
DRD3: D(3) dopamine receptor (DRD3, Homo sapiens, UniProt P35462)
UniProt P35462, sequence (whole entry, looked up): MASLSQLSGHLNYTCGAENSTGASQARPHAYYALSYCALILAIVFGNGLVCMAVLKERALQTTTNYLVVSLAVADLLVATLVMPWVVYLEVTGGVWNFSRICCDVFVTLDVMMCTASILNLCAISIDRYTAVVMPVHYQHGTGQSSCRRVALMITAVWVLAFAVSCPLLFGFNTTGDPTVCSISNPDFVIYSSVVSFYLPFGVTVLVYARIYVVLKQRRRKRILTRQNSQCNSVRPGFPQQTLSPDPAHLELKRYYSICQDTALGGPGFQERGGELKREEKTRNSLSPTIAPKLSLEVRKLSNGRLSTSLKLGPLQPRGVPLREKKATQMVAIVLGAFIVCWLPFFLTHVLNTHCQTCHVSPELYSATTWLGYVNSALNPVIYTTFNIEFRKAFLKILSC
SMILES	target or system	test	test system	setting	how to read	quantity	result
CC1=C(C#N)C(c2ccc3[nH]nc(C)c3c2)C(C#N)=C(C)N1	RSK2	Millipore kinase panel				IC50	900 nM
CCC(C)n1ncn(-c2ccc(N3CCN(c4ccc(OCC5COC(Cn6cncn6)(c6ccc(Cl)cc6Cl)O5)cc4)CC3)cc2)c1=O (stereo not drawn)			human			half-life	~18 h
OC[C@H]1O[C@H](O[C@]2(CCl)O[C@H](CCl)[C@@H](O)[C@@H]2O)[C@H](O)[C@@H](O)[C@H]1Cl		sensory evaluation	human sensory panel, water			detection threshold	13 µM and 8.77 µM
N#Cc1cc(NC(=O)[C@H]2c3ccccc3C(=O)N(CC(F)(F)F)[C@@H]2c2cccnc2)ccc1F	Plasmodium falciparum		3D70087/N9, NSG mouse			ED90	< 2 mg/kg and 1.9 mg/kg
C=C1C(=O)O[C@H]2[C@H]1CC/C(C)=C/CC[C@@]1(C)O[C@@H]21	NLRP3 inflammasome	inhibitor	BMDM	added: LPS + ATP		IC50	5000 nM
CC(C)(O)c1cncc(-c2nc3ccc(F)cc3n2C2CC2)c1	ADRA2B	radioligand binding				IC50	4700 nM
CN1CCc2nc(C(=O)N[C@@H]3C[C@@H](C(=O)N(C)C)CC[C@@H]3NC(=O)C(=O)Nc3ccc(Cl)cn3)sc2C1			human, moderate renal impairment	concentration not given, eGFR 10-50 mL/min	reference: normal renal function	exposure increase	74%
N#Cc1ccc(Nc2ccc3[nH]c(=O)[nH]c3c2)c(Cl)c1	BCL6 (human)	biochemical				IC50	110000 nM
CCC(C)n1ncn(-c2ccc(N3CCN(c4ccc(OCC5COC(Cn6cncn6)(c6ccc(Cl)cc6Cl)O5)cc4)CC3)cc2)c1=O (stereo not drawn)	dopamine transporter					IC50	> 10000 nM
CCCCCCCN(CC)CCCC(O)c1ccc(NS(C)(=O)=O)cc1 (stereo not drawn)			AF patients	dose not given	reference: patients	ventricular tachycardia incidence	3.6%
O=c1ccc2ccc(OCCCCN3CCN(c4cccc5sccc45)CC3)cc2[nH]1	dopamine D2 receptor	binding				Ki	0.3 nM
O=C(Cc1ccccc1)Nc1nnc(N2C[C@H]3C[C@@H]2CN3c2cccnn2)s1	GLS	biochemical				IC50	31 nM
N[C@@H](C[18F])C(=O)O			tumour-bearing rat, bone	30 min		tissue uptake	> 4 %ID/g
CCN(CC)CCCC(C)Nc1ccnc2cc(Cl)ccc12 (stereo not drawn)	Plasmodium falciparum		3D70087/N9, NSG mouse			ED90	4.3 mg/kg
C[C@H](Cn1cnc2c(N)ncnc21)OCP(=O)(O)O			human, plasma	oral, 300 mg tenofovir disoproxil fumarate, single dose, geometric mean		Cmax	263 ng/mL
CC1(C)CCC2(CC1)N[C@@H](C(=O)N[C@@H]1CC[C@@H](C(N)=O)OC1)[C@H](c1ccnc(Cl)c1F)[C@]21C(=O)Nc2cc(Cl)ccc21			human cancer patients	oral, 260 mg once daily, cycle 1 day 1		half-life	10 h
CN(C(=O)C(C)(C)c1cc(C(F)(F)F)cc(C(F)(F)F)c1)c1cnc(N2C[C@H]3COCCN3C[C@H]2CO)cc1-c1ccc(F)cc1[14CH3]			plasma			unbound fraction	< 0.5%
Nc1ncnc2c1ncn2[C@@H]1O[C@H](COP(=O)(O)OP(=O)(O)OP(=O)(O)O)[C@H]2OC3(O[C@H]21)C([N+](=O)[O-])=CC(=[N+]([O-])O)C=C3[N+](=O)[O-] (stereo partly drawn)	Replicative DNA helicase DnaB (dnaB, Escherichia coli, UniProt P0ACB0)	intrinsic fluorescence quenching		hexagon model, six sites		Kd	1690 nM
CCCN(CCC1(O)CC(NC(=O)c2ccc3ccccc3c2)C1)C1CC1c1ccc(Cl)cc1 (stereo not drawn)	DRD3	binding				Ki	2.8 nM
COc1ncc(-c2nc3c(n2C(C)C)[C@H](c2ccc(Cl)cc2)N(c2cc(Cl)cn(C)c2=O)C3=O)c(OC)n1			human cancer patients	1 to 400 mg, cycle 1 day 1, multiple dosing schedules		half-life, median	6.4 to 31.1 h
CCc1cc(Cl)c(OC)c(N2CCN(C[C@H](O)CCNC(=O)c3cc4ccccc4[nH]3)CC2)c1	DRD3	binding				Ki	6.8 nM
COC(=O)[C@H](Cc1ccccc1)NC(=O)[C@@H](N)CC(=O)O		sensory evaluation	human sensory panel, water			detection threshold	22.4 µM
CCN(CC)C(=S)SSC(=S)N(CC)CC	NLRP3 inflammasome		THP-1	added: LPS and nigericin		IC50	410 nM
